Experimental data gathered from unrelated publications.
Every numbered part comes from another study and shows a few of its results, in no order. Several values in a cell are separate wells, animals, samples, runs or records.
Chain of UniProt Q16566 (whole entry, looked up): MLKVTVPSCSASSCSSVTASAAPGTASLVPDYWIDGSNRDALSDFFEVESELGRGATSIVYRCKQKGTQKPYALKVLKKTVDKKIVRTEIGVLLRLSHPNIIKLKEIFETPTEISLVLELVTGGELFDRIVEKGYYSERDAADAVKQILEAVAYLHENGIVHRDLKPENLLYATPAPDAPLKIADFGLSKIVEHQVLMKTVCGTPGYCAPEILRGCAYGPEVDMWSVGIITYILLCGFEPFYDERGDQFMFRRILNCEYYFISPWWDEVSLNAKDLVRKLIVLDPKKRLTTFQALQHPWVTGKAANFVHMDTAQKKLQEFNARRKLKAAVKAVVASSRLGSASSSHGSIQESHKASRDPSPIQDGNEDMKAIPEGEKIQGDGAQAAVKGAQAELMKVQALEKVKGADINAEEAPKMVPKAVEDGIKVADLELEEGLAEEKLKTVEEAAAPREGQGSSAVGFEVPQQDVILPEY
Chain of UniProt P78356 (whole entry, looked up): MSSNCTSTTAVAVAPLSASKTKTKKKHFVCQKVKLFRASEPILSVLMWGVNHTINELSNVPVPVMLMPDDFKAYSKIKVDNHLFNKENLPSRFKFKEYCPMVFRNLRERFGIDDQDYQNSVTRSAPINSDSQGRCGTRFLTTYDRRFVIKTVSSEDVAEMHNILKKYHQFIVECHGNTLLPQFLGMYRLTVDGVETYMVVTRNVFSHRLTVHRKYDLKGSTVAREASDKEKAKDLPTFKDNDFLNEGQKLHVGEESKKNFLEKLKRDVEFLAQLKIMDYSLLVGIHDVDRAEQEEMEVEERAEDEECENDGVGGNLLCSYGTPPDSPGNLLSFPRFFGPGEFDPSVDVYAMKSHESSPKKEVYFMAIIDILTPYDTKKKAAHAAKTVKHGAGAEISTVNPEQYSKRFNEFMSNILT
Chain of UniProt Q00537 (whole entry, looked up): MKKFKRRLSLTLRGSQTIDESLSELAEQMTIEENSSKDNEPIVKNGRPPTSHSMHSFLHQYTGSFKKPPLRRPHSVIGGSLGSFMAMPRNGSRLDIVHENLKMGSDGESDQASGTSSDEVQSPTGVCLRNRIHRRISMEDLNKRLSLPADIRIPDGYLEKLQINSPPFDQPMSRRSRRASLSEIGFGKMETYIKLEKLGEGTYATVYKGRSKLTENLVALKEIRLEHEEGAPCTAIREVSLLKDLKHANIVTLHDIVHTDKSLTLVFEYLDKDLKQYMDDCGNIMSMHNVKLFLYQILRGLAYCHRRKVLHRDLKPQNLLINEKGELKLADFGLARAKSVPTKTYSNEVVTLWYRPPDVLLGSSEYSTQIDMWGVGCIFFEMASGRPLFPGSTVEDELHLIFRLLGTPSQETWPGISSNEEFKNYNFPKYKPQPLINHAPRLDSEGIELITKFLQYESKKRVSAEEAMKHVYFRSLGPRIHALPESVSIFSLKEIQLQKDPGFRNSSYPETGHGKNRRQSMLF
Chain of UniProt Q9UQM7 (whole entry, looked up): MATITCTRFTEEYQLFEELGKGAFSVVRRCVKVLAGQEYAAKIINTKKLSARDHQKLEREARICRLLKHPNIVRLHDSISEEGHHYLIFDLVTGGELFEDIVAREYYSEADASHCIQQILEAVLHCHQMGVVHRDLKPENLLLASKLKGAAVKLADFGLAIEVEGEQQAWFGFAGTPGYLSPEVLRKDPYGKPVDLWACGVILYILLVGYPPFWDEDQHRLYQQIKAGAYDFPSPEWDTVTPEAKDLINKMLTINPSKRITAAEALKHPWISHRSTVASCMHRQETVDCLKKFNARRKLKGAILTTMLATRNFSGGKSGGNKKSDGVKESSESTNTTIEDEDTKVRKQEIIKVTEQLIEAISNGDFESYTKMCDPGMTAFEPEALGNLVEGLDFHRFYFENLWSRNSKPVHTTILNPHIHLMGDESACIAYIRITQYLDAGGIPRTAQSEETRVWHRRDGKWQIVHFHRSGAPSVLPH

Block 1
Target: Cyclic AMP-dependent transcription factor ATF-1, full length (ATF1, Homo sapiens, UniProt P18846, residues 1-271)
Technique: protein-binding microarray
Form: hairpin DNA
Sample: in vitro
Tested at: not given
Notes: whole hairpin DNA, median over replicate spots
Reference: not given
Direction: higher = stronger binding
Target sequence (chain): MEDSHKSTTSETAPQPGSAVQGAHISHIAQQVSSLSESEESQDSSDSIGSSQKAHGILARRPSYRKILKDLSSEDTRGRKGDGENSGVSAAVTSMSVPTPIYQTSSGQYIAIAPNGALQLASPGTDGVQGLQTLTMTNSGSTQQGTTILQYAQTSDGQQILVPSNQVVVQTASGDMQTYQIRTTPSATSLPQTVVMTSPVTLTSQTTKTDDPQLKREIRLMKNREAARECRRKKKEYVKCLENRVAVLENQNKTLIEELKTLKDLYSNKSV
| Sequence | median fluorescence [a.u.] |
| --- | --- |
| GAGGCCGGACGACGTCAGCCTCCTGGCTGACGTCGTCCGGCCTCACACTC | 6180 |
| GAGGCCGCGGACGTCGTGCCTCCTGGCACGACGTCCGCGGCCTCACACTC (5mC at 15 29 35) | 4060 |
| GAGGCCGACCGCGTCGTGCCTCCTGGCACGACGCGGTCGGCCTCACACTC (5mC at 9 15 29) | 4060 |
| GAGGCCGGATGACCGCAGCCTCCTGGCTGCGGTCATCCGGCCTCACACTC | 3680 |
| GAGGCCGACGACGCCGTGCCTCCTGGCACGGCGTCGTCGGCCTCACACTC (5mC at 9 14 15 29 35) | 4510 |
| GAGGCCGGCGACGTCGTGCCTCCTGGCACGACGTCGCCGGCCTCACACTC (5mC at 9 15 29 35 37) | 4610 |
| GAGGCCGACGACGTTGTGCCTCCTGGCACAACGTCGTCGGCCTCACACTC (5mC at 9 29 35) | 4510 |
| GAGGCCTGATGACGTCAGCCTCCTGGCTGACGTCATCAGGCCTCACACTC | 15300 |

Block 2
Structure (SMILES): CC(=O)N1CCC(c2ccc(C(=O)NC(=N)N)cc2C(F)(F)F)CC1
Technique: competition with immobilised ligand
Tested at: 1 µM
| target | observed | remaining binding |
| --- | --- | --- |
| LTK (Homo sapiens, UniProt P29376) | cell-free assay | 100% |
| NEK4 (Homo sapiens, UniProt P51957) | cell-free assay | 100% |
| MAPKAPK5 (Homo sapiens, UniProt Q8IW41) | cell-free assay | 100% |
| Myosin-IIIa (MYO3A, Homo sapiens, UniProt Q8NEV4) | binding | 100% |
| IRAK3 (Homo sapiens, UniProt Q9Y616) | cell-free assay | 99% |
| Aurora kinase A (AURKA, Homo sapiens, UniProt O14965) | cell-free assay | 87% |
| IKBKE (Homo sapiens, UniProt Q14164) | cell-free assay | 70% |
| Tyrosine-protein kinase ABL1, phosphorylated (ABL1, Homo sapiens, UniProt P00519, Y253F) | cell-free assay | 92% |
| PRKG2 (Homo sapiens, UniProt Q13237) | cell-free assay | 100% |
| VRK2 (Homo sapiens, UniProt Q86Y07) | cell-free assay | 100% |
| PIP4K2B (Homo sapiens, UniProt P78356) | cell-free assay | 77% |
| FLT3 (Homo sapiens, UniProt P36888, D835V) | cell-free assay | 92% |
| TNNI3K (Homo sapiens, UniProt Q59H18) | cell-free assay | 100% |
| MAP2K6 (Homo sapiens, UniProt P52564) | cell-free assay | 100% |
| KIT (Homo sapiens, UniProt P10721, D816H) | cell-free assay | 100% |
| PIK3C3 (Homo sapiens, UniProt Q8NEB9) | cell-free assay | 100% |
| EPHB2 (Homo sapiens, UniProt P29323) | cell-free assay | 100% |
| CAMK4 (Homo sapiens, UniProt Q16566) | cell-free assay | 93% |

Block 3
Cell line: mouse MPNST tumor cells
Technique: high-content immunofluorescence imaging
Refers to: nuclear SOX9
Tested at: 10 µM
Time: 12 h
Notes: mean of 2 replicates
Reference: DMSO control
Direction: higher = more nuclear SOX9
| SMILES | nuclear SOX9 intensity |
| --- | --- |
| Cc1ccsc1C(=CCCN1CCC[C@@H](C(=O)O)C1)c1sccc1C | 97.5 % of DMSO and 104 % of DMSO |
| CNC[C@H](O)c1cccc(O)c1 | 99.5 % of DMSO |
| CCC(c1ccccc1)c1c(O)c2ccccc2oc1=O (stereo not shown) | 89 % of DMSO |

Block 4
Host: mouse
Sample: microsomes or S9
Tested at: 2 µM
Time: 0.5 h
| Compound | remaining compound [%] |
| --- | --- |
| CC(C)(C)OC(=O)N[C@@H](CC(=O)N1CCCN(S(C)(=O)=O)CC1)Cc1cc(F)c(F)cc1F | 0.435 |
| CCOC(=O)C1CCN(c2nc(-c3ccc(S(C)(=O)=O)cc3)ncc2OC)CC1 | 1.84 |
| Cc1c(O)ccc(C(=O)Cc2ccccc2F)c1O | 14.1 |

Block 5
Target: Beta-1 adrenergic receptor (ADRB1, Homo sapiens, UniProt P08588)
Chain of UniProt P08588 (whole entry, looked up): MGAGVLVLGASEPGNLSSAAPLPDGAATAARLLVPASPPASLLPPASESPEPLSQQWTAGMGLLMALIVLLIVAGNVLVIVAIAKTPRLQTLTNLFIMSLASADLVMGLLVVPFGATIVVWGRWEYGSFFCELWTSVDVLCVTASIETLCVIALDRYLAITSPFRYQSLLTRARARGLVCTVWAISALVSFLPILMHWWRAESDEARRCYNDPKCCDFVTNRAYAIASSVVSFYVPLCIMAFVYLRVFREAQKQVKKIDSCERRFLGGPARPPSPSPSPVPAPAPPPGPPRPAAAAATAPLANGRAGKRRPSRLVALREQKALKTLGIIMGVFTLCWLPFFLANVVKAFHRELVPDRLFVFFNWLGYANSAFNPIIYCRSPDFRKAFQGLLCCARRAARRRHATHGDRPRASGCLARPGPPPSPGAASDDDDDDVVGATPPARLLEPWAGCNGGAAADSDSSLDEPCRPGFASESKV
Mode: antagonist
| Structure (SMILES) | IC50 [µM] |
| --- | --- |
| CCN(Cc1cccc(S(=O)(=O)O)c1)c1cccc(C(=C2C=CC(=[N+](CC)Cc3cccc(S(=O)(=O)O)c3)C=C2)c2ccc(O)cc2S(=O)(=O)[O-])c1 | 15.8 |
| O=C1COC[C@H]([C@H](O)c2ccc(NC(=O)c3ccc(C(F)(F)F)cc3)cc2)N1 | ≥ 100 |
| N#C/C(=C\c1ccc(O)c(O)c1)c1nc2ccccc2[nH]1 | ≥ 100 |

Single results of other studies
POLQ ATPase domain: DNA polymerase theta, ATPase domain (POLQ, Homo sapiens, UniProt O75417)
Chain of UniProt O75417 (whole entry, unmodified, looked up): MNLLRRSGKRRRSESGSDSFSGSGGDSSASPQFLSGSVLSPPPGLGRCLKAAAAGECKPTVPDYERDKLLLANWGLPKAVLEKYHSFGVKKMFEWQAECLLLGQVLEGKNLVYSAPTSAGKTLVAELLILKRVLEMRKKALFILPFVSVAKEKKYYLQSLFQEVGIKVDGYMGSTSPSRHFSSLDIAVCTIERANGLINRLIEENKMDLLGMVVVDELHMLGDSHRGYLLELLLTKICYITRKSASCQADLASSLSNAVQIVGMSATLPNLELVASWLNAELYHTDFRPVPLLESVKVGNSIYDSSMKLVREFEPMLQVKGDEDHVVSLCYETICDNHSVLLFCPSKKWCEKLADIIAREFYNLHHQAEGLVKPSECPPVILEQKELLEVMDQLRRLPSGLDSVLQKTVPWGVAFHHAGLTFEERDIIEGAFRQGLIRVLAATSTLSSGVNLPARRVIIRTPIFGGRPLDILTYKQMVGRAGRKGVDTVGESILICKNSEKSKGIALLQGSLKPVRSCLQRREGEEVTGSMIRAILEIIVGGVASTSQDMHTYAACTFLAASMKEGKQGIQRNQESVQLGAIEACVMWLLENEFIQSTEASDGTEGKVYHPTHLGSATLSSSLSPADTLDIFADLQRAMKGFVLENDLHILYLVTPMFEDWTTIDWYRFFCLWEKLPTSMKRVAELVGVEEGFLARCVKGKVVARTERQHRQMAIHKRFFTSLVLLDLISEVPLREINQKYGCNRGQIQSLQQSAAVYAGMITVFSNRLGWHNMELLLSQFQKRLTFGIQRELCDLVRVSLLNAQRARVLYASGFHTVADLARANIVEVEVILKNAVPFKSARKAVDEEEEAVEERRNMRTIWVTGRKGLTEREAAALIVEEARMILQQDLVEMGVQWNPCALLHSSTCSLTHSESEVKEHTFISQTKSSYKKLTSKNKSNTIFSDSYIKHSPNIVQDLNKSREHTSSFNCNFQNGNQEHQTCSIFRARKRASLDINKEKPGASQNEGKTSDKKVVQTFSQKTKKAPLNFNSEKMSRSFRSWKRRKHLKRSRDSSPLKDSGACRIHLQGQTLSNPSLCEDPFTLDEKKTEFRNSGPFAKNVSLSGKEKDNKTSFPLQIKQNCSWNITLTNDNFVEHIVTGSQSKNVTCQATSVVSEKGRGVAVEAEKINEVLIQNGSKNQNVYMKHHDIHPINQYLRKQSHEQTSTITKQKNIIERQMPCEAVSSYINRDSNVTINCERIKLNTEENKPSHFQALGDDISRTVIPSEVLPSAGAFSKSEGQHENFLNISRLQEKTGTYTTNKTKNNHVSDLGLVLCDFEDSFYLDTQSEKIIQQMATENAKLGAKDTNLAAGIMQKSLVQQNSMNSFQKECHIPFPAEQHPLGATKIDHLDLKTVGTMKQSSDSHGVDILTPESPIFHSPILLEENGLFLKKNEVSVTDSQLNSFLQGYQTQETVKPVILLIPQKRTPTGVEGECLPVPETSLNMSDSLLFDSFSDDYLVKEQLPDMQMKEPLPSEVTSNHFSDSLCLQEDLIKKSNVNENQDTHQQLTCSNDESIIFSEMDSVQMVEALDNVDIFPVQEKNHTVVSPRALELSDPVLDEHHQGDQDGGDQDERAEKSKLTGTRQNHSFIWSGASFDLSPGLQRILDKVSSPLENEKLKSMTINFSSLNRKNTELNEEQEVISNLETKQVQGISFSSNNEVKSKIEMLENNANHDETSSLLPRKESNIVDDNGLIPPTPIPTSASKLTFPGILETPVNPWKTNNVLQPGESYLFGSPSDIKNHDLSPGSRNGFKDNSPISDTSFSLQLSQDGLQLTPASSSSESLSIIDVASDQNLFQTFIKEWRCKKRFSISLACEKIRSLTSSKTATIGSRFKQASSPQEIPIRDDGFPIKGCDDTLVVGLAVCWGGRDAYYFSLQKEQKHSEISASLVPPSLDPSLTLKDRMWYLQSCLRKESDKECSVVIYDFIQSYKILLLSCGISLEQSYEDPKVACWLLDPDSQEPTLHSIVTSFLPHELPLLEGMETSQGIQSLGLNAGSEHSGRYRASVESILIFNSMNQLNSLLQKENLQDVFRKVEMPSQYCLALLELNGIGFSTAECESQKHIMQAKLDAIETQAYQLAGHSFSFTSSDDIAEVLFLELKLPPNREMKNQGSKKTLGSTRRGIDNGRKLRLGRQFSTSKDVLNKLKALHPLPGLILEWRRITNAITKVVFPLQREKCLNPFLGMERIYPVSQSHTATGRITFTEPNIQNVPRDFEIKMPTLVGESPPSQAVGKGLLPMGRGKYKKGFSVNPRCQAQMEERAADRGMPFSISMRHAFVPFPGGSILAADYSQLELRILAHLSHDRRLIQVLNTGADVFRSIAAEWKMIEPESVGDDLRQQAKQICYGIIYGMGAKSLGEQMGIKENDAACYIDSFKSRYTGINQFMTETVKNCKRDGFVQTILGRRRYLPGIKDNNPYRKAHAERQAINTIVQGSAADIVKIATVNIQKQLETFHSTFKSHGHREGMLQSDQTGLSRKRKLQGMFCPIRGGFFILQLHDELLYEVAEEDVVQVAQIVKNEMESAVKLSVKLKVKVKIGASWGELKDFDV
| Structure (SMILES) | tested on | assay | setting | scale | measurement | result |
| --- | --- | --- | --- | --- | --- | --- |
| C[C@@H]1C[C@H]2OC(=O)[C@@]3(C)CCC[C@@](C)([C@@H]23)[C@@]1(O)CCc1ccoc1 | CAMK2A (Homo sapiens, UniProt Q9UQM7) | enzyme activity, inhibitor | 10 µM |  | inhibition | 30% |
| CC[C@@]1([C@H]2O[C@H]([C@H]3O[C@@](O)(CO)[C@H](C)C[C@@H]3C)C[C@H]2C)CC[C@H]([C@@]2(C)CC[C@]3(C[C@H](O)[C@@H](C)[C@@H]([C@H](C)[C@H](OC)[C@@H](C)C(=O)O)O3)O2)O1 | POLQ ATPase domain | enzyme activity, inhibitor | 77 µM | reference: untreated | remaining activity | 101% |
| O=C(Nc1cnn(-c2csc(C(=O)NC3COC3)c2)c1)Nc1c(F)cccc1Cl | Cyclin-dependent kinase 17, with cyclin Y (CDK17, Homo sapiens, UniProt Q00537) | enzyme activity | 5 µM | reference: untreated control | remaining activity | 94.3% |
| CCCCCCCC/C=C\CCCCCCCC(=O)NCCc1ccc(O)c(O)c1 | POLQ ATPase domain | enzyme activity, inhibitor | 77 µM | reference: untreated | remaining activity | 108% |
| Cn1c(=O)c2[nH]cnc2n(C)c1=O | Sarcocystis neurona | parasite growth | 10 µM, 96 h |  | inhibition | -7% |

A few entries again (block 2):
| target | observed | remaining binding |
| --- | --- | --- |
| NEK4 (Homo sapiens, UniProt P51957) | cell-free assay | 100% |
| MAPKAPK5 (Homo sapiens, UniProt Q8IW41) | cell-free assay | 100% |
